# Measured values of several laboratories.
# Every numbered part comes from another study and shows a few of its results, in no order. Changes are numbered by the printed parent chain.

# Sample 1 — method: RNA Bind-n-Seq; form: RNA; medium: in vitro; concentration: 365 nM; baseline: no-protein control; reading: higher = stronger binding
# Target: RNA binding protein fox-1 homolog 2, RRM domain, GST-SBP tag (RBFOX2, Homo sapiens, UniProt O43251-10, residues 100-194)
# Setting: natural RNA segment, single round, ends assumed
# Constant ends, left off below: GGGAGUUCUACAGUCCGACGAUC … UGGAAUUCUCGGGUGCCAA
# Residues (chain): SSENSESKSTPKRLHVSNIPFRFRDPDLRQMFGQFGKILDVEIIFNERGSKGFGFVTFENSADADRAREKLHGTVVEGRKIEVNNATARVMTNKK
Strand,RBNS enrichment (R)
CAAUUUGUUAUAAGUUGGUUUUCAACAAAGAAAUUUAGCAGCCAAGUAAGGUUUCAAGGGAAUAUUAACUUGGUAUCAGGGCUACUUUUUUUUUUUUUUUUUUACUUGCA,1.61
UAAGCUAACACUUUUAACAACGGUUACAAUGUUAAGUGAAGUUCAUGGAUUUAACAACAAAACAGAUGAAAUGUCAUUGUUUUUUUUUUCCAAGUCACUAAAGAGUUACU,0.79
AGCGACCCGGGCGCCAGCCCAGGUCACCGAGCCCUACUGGCGCCGAGUGGGGCGCGUUUGUUCCUCACCCACGCGCGUGGGGAUCCCCUCGCCACAGGGAAGCACAAGAA,0.261
UCCUCCUUGUCCUAGUUACUGCCUAUGGAGGCAGUGUUUAGAUCAAGAAGGCCUCUCUUGCUCCCAAGGGCCCUCACCAGAGGCCAGGGCUGCCAGUCACUGGUCUGGGG,0.16
GCCAUCAAGUUACGGACAAGGAUUCACAGUGUGCCUGGCUGAUGUCAAUAUUUUCUCAUGUUAAUAAUAUUUAUGUUGGGUCAUCUGUUAGGUCAAUAACUAUAUUUUUA,0.704
CAUUCAUUGAUUUGCGUAUAUUGAACCAGCCUUGCAUCCCAGGGAUGAAGCCCACUUGAUCAUGGUGGAUAAGCUUUUUGAUGUGCUGCUGGAUUCGUUUUGCCAGUAUU,0.492
ACCUUGACGGAGGAAACUCCUCAGACGCAUGAAGCUCUUGACCUCCGUUUGCUUUGGAAAAAACAAAACAAAACAAAACAAAACAAAAAACAAAAACACUGCGCAUUUCA,3.53
GAGCCUGUGGCUGGCCCUCUGCUGCUGUUCUCUCCCUCCAACCUGGCUGUUUCUUGCGGGGCAAGGGGUGGGCUCAGGGCUGCAGGGGUUUCUCAAAGGCAAUCCAGCUU,0.305

# Sample 2 — method: universal PBM; form: double-stranded DNA, one strand shown; medium: in vitro; concentration: 600 nM; reading: higher = stronger binding
# Target: Sal-like protein 4, full length isoform A (SALL4, Homo sapiens, UniProt Q9UJQ4, residues 1-1053)
# Chain of UniProt Q9UJQ4 (whole entry, looked up): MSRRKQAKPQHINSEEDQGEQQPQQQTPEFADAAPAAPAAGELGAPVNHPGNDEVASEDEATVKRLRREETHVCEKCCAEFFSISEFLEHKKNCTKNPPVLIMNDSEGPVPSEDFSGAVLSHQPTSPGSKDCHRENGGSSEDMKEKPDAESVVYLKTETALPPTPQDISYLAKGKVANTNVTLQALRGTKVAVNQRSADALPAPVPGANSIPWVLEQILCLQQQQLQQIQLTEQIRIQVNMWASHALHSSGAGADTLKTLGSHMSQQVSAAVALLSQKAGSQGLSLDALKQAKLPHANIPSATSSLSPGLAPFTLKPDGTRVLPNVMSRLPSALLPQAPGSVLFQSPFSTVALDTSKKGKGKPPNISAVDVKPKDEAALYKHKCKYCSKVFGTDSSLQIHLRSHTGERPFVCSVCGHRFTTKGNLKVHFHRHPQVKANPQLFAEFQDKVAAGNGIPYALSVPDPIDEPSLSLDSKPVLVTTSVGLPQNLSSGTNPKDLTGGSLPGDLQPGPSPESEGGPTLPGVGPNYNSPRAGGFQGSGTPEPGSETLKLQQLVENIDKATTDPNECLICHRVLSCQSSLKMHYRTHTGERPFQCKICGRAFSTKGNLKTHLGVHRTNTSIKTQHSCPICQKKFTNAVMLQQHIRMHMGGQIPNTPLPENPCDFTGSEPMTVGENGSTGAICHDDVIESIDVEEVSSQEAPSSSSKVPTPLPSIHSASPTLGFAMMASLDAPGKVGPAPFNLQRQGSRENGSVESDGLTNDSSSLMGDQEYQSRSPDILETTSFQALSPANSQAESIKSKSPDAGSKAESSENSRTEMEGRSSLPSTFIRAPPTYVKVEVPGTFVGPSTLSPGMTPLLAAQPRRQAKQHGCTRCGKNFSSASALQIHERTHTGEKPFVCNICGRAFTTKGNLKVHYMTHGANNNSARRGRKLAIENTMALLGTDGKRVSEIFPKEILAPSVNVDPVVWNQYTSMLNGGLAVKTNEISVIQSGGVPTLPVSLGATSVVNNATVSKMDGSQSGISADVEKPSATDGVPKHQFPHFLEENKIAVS
# Setting: 8-mer, flanks averaged, mean of replicates
Strand,E-score
ACGGCCTA,-0.191
AGTCCACA,-0.0477
CCGGTCTC,-0.26
GAGCAGTA,0.0768
GGCCGTGA,-0.13
ACTCACAG,-0.0267
CGTAACTC,-0.0997
AGAGATTG,0.12
CTACTCTC,-0.0185
CCGGCGAG,-0.334
CCTCCCAG,-0.323
AGAGGGAA,-0.0585
CTTTCAGC,-0.0744
GGCCGGGA,-0.286
AACGATTA,0.12
CGACCACA,-0.182
CCCGCGGC,-0.287

# Sample 3 — method: RNA Bind-n-Seq; form: RNA; medium: in vitro; concentration: not given; baseline: input RNA pool; reading: higher = stronger binding
# Target: RING finger protein unkempt homolog, zinc fingers 1-6, GST-SBP tag (UNK, Homo sapiens, UniProt Q9C0B0, residues 30-357)
# Setting: RNA with constant flanks, human-mouse chimeric sites, ends assumed
# Constant ends, left off below: GGGAGUUCUACAGUCCGACGAUC … CAACAGAGGAUUGAGCAUCA
# Construct (chain): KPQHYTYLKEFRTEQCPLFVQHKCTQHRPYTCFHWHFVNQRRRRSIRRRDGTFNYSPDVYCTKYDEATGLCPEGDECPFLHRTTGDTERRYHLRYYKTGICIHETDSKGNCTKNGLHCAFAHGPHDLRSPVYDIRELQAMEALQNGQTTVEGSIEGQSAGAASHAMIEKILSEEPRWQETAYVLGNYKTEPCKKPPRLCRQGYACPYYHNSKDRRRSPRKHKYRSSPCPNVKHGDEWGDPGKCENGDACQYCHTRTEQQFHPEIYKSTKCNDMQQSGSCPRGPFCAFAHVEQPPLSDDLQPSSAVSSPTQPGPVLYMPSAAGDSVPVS
Strand,bound/input enrichment [ratio]
GCACUUGGGAAUGUAAUCAGCGCCUUGGGGGACAAGAGCAAGAGAGCCACCCAUGUCCCCUAUAGAGACUCUAAGCUGACAAGACUCUUGCAGGAUUCCCUUGGGGGUAACAGCCAAACC,0.147
AAAGAGUGGAUAGAGUGUGCACACGGGAUCGGUUAUACCCGGGCGAAAAAGGAGUGCAAGAUAGAAUUCGAUGACUUCGAAGAGUGCUUGCUUCGGUACAAAACGAUGAGGCGAAUGCAU,0.408
AGAAAGCAAAACUUGGAACGAUUUAAGAAAGGAGACGUAAGAUUCUUGAUUUGCACAGAUGUAGCUGCUAGAGGGAUUGAUAUCCACGGCGUUCCUUAUGUUAUAAACGUCACCCUGCCU,0.19
GAGCCCAGCCGGCAGUUUGUAAAGGACUCCAUUCGGCUGGUUAAAAGAUGCACCAAACCCGACAGAAAAGAAUUCCAGAAGAUUGCCAUGGCUACAGCAAUAGGAUUUGCUAUCAUGGGA,0.15
GCGGCAGAAUCAUGGAGGACAUAAUGCAGCUCCCCAAAGCGCGCGUCAACGCCGGCAUGUUACCACAGUAUAUCGACCGGCCCGUGUGCUUCGUGGGGAGGCUGGAAAAGAUUCAUCCCA,0.0683
GAUAAGAAAAGCUUGUUGGAGACCCGAUUGCAUGUCACUGGUAGAGACCUGAGGUGUCAAAUAGCUGAAACUUUCGGACUUCAAGAAAAUUACAUCAAGAUCGUAAUAAAUAAGAAACAG,0.247
UCUGGUCACACUCGUGUAUAUGGUGUGUGCUUUGUGGACACUUCACUGGGCAAGUUUUUCAUCGGCCAGUUUUCGGAUGACCGCCACUGUUCCAGAUUUAGGACUCUAGUGGCUCACUAU,0.184
GAGCCCAGCCGGCAGUUUGUAAAGGACUCAAUUCGGCUGGUUAAAAGAUGCACCAAACCCGACAGAAAAGAAUUCCAGAAGAUUGCCAUGGCUACAGCAAUAGGAUUUGCUAUAAUGGGA,0.255

# Sample 4 — method: DHFR PCA, deep sequencing; medium: yeast; together with: (+)-ABA 710 µM; baseline: wild-type fitted maximum; reading: higher = stronger binding
# Target: ABI1, truncated, D143A, DHFR fusion (Arabidopsis thaliana)
# Setting: methotrexate growth selection, single substitutions
# Starting sequence: PYL1, truncated, DHFR fusion (Arabidopsis thaliana); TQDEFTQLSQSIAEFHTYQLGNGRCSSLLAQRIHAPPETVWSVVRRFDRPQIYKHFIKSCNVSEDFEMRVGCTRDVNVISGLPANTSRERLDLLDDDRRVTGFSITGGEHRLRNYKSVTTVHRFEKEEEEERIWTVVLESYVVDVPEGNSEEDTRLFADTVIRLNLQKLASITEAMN
Substitution,relative binding score [%]
S27P,-20.4
N22T,101
I162Q,10.7
Y53V,58.3
Q51T,92.2
S150W,65.9
D75L,105
Q31R,98.9
L28N,64.3
A84S,83.6
R74A,1.79
L164G,93.8
D153Y,13.6
V143Y,45.3
L138Q,72.8
E125F,109

# Sample 5 — method: protein binding microarray; form: double-stranded DNA, one strand shown; medium: in vitro; concentration: not given; baseline: not given; reading: higher = stronger binding
# Target: Histone acetyltransferase KAT6A, both winged helices, GST fusion (KAT6A, Homo sapiens, UniProt Q92794, residues 1-181)
# Setting: 8-mer, flanks averaged, mean of 2 arrays, mostly near background
# Target sequence (chain): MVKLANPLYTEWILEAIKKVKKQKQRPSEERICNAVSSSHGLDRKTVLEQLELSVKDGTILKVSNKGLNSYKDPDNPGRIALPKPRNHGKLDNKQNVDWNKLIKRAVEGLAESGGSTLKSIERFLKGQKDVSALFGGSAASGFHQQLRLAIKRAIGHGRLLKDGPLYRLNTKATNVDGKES
Strand,E-score
AGTCTGTA,-0.0735
TAGCACAA,-0.152
GACCGGAC,0.153
GGAGCTTA,-0.0641
ATGTGAGC,-0.0725
AAGTTTAA,-0.109
ACGATCGC,0.241
ATCAAGCC,0.0167
CGAAGTTC,0.0743
CCGTGTAG,0.116
AGGCCTGG,-0.0637
GATGAGCC,-0.0673
AGGATTCG,-0.09
AGTACCTA,-0.141
AACCCAAT,-0.152
ACTCATAC,-0.054
CATCACTC,-0.153
AACGGAGG,0.0677
GATTGCCA,-0.164
ATTAAGTC,-0.133
CACCTTGA,-0.122
TATAACCA,-0.0934
CAATTGTC,-0.0605
AAGTAAGC,-0.0272

# Sample 6 — target: CCND1, cyclin fold, Cln2 fusion (human); method: yeast growth competition, sequencing; medium: yeast; setting: strong parent motif; baseline: not given; reading: higher = stronger binding
# Starting sequence: E2F1 docking peptide (human); PPVKRRLDFETDH; partner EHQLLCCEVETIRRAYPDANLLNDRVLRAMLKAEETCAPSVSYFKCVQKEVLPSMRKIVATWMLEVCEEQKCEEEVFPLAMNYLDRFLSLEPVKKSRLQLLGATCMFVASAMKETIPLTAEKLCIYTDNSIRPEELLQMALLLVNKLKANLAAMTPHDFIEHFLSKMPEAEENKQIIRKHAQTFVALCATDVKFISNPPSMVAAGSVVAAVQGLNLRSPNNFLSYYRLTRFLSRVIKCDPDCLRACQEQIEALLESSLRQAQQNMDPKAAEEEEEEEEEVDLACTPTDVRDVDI
Substitution,normalised enrichment score
PPSKRRLDFETDH [V3S],1.42
PPVKRRRDFETDH [L7R],-0.0371
PAVKRRLDFETDH [P2A],1.85
PPVKRRLDHETDH [F9H],-0.129
PPVKRELDFETDH [R6E],1.32
PPVKRRLCFETDH [D8C],3.08
PVVKRRLDFETDH [P2V],1.53
PPVKRRLSFETDH [D8S],2.71
PPVKRRYDFETDH [L7Y],0.0651
PPVKRRLDFFTDH [E10F],1.11
PPVKRCLDFETDH [R6C],2.35
PPVHRRLDFETDH [K4H],1.88
PPVKRRLDFETVH [D12V],2.95
PPVKRRLDAETDH [F9A],0.107
PPVKRRLDFKTDH [E10K],1.53
PPVERRLDFETDH [K4E],1.33
PPVKARLDFETDH [R5A],0.391
PPVKRRLDFITDH [E10I],1.23
PPVKERLDFETDH [R5E],0.107
PPGKRRLDFETDH [V3G],0.525
PPVKRRLDFEFDH [T11F],3.31
PPVKRRLDFETCH [D12C],3.37
PPVKRWLDFETDH [R6W],0.57
PPVKRRLDFETFH [D12F],2.87

# Sample 7 — method: RNAcompete; form: RNA; medium: in vitro; concentration: 20 nM; setting: 7-mer, probes averaged, single round; baseline: mean of 7-mers; reading: higher = stronger binding
# Target: PABPC1L2, full length, GST fusion (mouse, UniProt A0ABA7IW68)
Strand,7-mer Z-score
AAUUCGC,0.158
CUCGUAU,-0.311
GACUUCA,-0.119
UCAUACG,-0.22
UGCUAUU,-0.249
UGCUUAU,-0.423
AUAAGUG,0.00436
CAGGACU,0.109
ACUACCC,-0.365
UCAGGUA,-0.0554
GAGAUUU,-0.0591
GAUACAG,0.0986
UCUUGCG,-0.291
UAGGUAU,-0.0554

# A few entries again (sample 5):
Strand,E-score
TATAACCA,-0.0934
AAGTTTAA,-0.109
AGGATTCG,-0.09
AGGCCTGG,-0.0637
CAATTGTC,-0.0605
CACCTTGA,-0.122
